# Measurements pooled from the literature.
# ± marks the error that the study gave.
# Organism: Escherichia coli
SMILES,assay,test system,setting,how to read,MIC
CCCCCCCCCCCCCC[S+]([O-])CC1OC(OC2C(N)CC(N)C(OC3OC(CN)C(O)CC3N)C2O)C(O)C(N)C1O (mixture of isomers),,BL21(DE3),,,37.5 µg/mL
O=C(NC12CC3CC(CC(C3)C1)C2)c1cc2cc(Cl)ccc2[nH]1,broth microdilution,3,,,> 64 µM
CC(C)C[C@H](NC(=O)[C@H](Cc1ccc(O)cc1)NC(=O)[C@@H]1CCCN1C(=O)[C@H](CCCNC(=N)N)NC(=O)[C@@H]1CCCN1C(=O)[C@H](CCCCN)NC(=O)[C@H](CC(=O)O)NC(=O)[C@@H]1CCCN1C(=O)[C@H](CCCNC(=N)N)NC(=O)C1(N)CCCCC1)C(=O)N1CCC[C@H]1C(=O)N[C@@H](CCCNC(=N)N)C(=O)N1CCC[C@H]1C(=O)N[C@@H](CCCNC(=N)N)C(=O)N1CCC[C@H]1C(=O)N1CCC[C@H]1C(=O)N[C@@H](CCCNC(=N)N)C(=O)N1CCC[C@H]1C(=O)N[C@H](C(=O)N[C@@H](CCCNC(=N)N)C(=O)N[C@@H](CSCc1ccc(CSC[C@H](NC(=O)[C@H](CCCNC(=N)N)NC(=O)[C@@H](NC(=O)[C@@H]2CCCN2C(=O)[C@H](CCCNC(=N)N)NC(=O)[C@@H]2CCCN2C(=O)[C@@H]2CCCN2C(=O)[C@H](CCCNC(=N)N)NC(=O)[C@@H]2CCCN2C(=O)[C@H](CCCNC(=N)N)NC(=O)[C@@H]2CCCN2C(=O)[C@H](CC(C)C)NC(=O)[C@H](Cc2ccc(O)cc2)NC(=O)[C@@H]2CCCN2C(=O)[C@H](CCCNC(=N)N)NC(=O)[C@@H]2CCCN2C(=O)[C@H](CCCCN)NC(=O)[C@H](CC(=O)O)NC(=O)[C@@H]2CCCN2C(=O)[C@H](CCCNC(=N)N)NC(=O)C2(N)CCCCC2)C(C)C)C(=O)NN)cc1)C(=O)NN)C(C)C,bacterial growth,"ATCC 25922, 100% Mueller-Hinton broth","90 min, 37 °C, strain ATCC 25922",,8.1 ± 0.4 µg/mL
CO[C@@H](C(N)=O)[C@H](NC(=O)c1ccc(NC(=O)c2ccc([N+](=O)[O-])cc2)cc1)C(=O)Nc1ccc(C(=O)Nc2ccc(C(=O)Nc3ccc(C(=O)O)cc3)c(O)c2OC(C)C)cc1,,WT-3,,,0.06 µg/mL
CCCCCCCCCCCCCCCC(=O)N[C@@H](CCCCN)C(=O)N[C@@H](CCCCN)C(=O)N[C@@H](CCCNC(=N)N)C(=O)N[C@@H](CCCCN)C(N)=O,broth microdilution,"K12, water pH 7","18 h, 37 °C",,16 µg/mL
CC[C@H](C)[C@H](N)C1=N[C@H](C(=O)N[C@@H](CC(C)C)C(=O)N[C@H](CCC(=O)O)C(=O)N[C@H](C(=O)N[C@H]2CCCCNC(=O)[C@H](CC(N)=O)NC(=O)[C@@H](CC(=O)O)NC(=O)[C@H](Cc3c[nH]cn3)NC(=O)[C@@H](CC(C)C)NC(=O)[C@H]([C@@H](C)CC)NC(=O)[C@@H](CCCN)NC2=O)[C@@H](C)CC)CS1,broth microdilution,"ATCC 25922, LB medium","18 h, 37 °C, with: ZnSO4 0.3 mM",,> 64 µg/mL
CC[C@H](C)[C@H](NC(=O)[C@H](CCCN)NC(=O)[C@H](CC(N)=O)NC(=O)[C@H](CC(C)C)NC(=O)[C@H](Cc1ccccc1)NC(=O)[C@H](CCCN)NC(=O)[C@H](CCCNC(=N)N)NC(=O)[C@H](CC(C)C)NC(=O)[C@H](CC(C)C)NC(=O)[C@H](CCCN)NC(=O)[C@H](CCCNC(=N)N)NC(=O)[C@H](CC(C)C)NC(=O)CNC(C)=O)C(=O)N[C@@H](CCCN)C(=O)N[C@@H](CCCNC(=N)N)C(N)=O,broth microdilution,ATCC 25922,,,3.12 µM
COc1cc2c(=O)c(C(=O)NCCNCCO)cn(Cc3ccccc3)c2cc1OCc1cccc(Br)c1,,ATCC 25922,,≥80% growth inhibition,< 0.25 µg/mL
CC(C)C[C@@H]1NC(=O)[C@H](C)NC(=O)[C@H](C)NC(=O)[C@H](NC(=O)[C@H](CO)NC(=O)[C@@H](CCCCN)NC(=O)[C@@H](CC(C)C)NC(=O)[C@@H](N)Cc2ccccc2)[C@H](C(N)=O)OC1=O,,ATCC 10798,TFA salt,,> 32 µg/mL
CCCCCCCCCCCCCCC(=O)O.O=C1CCCC2C3CCCN4CCCC(CN12)C34 (centres unmarked),"bacterial growth, broth dilution",ATCC 25922,,,inactive
CCn1c(-c2ccc(OC)cc2)c(-c2ccc(OC)cc2)n(Cc2c(C)cc(C)cc2C)c1=[Se+][Au-][P+](c1ccccc1)(c1ccccc1)c1ccccc1.[Cl-],broth microdilution,carbapenem-resistant BAA-2140,24 h,,> 40 µM
CCCCCCCCCCCCCCCCCC(=O)N[C@@H](CCCCN)C(=O)N[C@@H](CCCCN)C(=O)N[C@@H](CCCNC(=N)N)C(=O)N[C@@H](CCCCN)C(=O)N[C@@H](CCCCN)C(N)=O,broth microdilution,"K12, water pH 7","18 h, 37 °C",,16 µg/mL
CC[C@H](C)[C@H](NC(=O)[C@H](CCCNC(=N)N)NC(=O)[C@H](CCCNC(=N)N)NC(=O)[C@H](CCCCN)NC(=O)[C@H](CC(N)=O)NC(=O)[C@H](CS)NC(=O)[C@H](Cc1ccc(O)cc1)NC(=O)CNC(=O)CNC(=O)[C@H](CCCNC(=N)N)NC(=O)[C@H](CCCCN)NC(=O)[C@H](CCCNC(=N)N)NC(=O)[C@H](CCCCN)NC(=O)[C@H](CC(C)C)NC(=O)[C@H](CC(C)C)NC(=O)[C@H](CS)NC(=O)[C@H](Cc1c[nH]cn1)NC(=O)[C@H](C)NC(=O)[C@H](C)NC(=O)[C@H](CS)NC(=O)[C@H](C)NC(=O)[C@H](C)NC(=O)[C@H](Cc1c[nH]cn1)NC(=O)[C@H](CC(N)=O)NC(=O)[C@@H](NC(=O)[C@H](CCCCN)NC(=O)[C@@H](NC(=O)CNC(=O)[C@H](CCCCN)NC(=O)[C@H](C)NC(=O)[C@H](CCC(=O)O)NC(=O)[C@H](C)NC(=O)[C@H](CO)NC(=O)[C@H](CC(C)C)NC(=O)[C@H](CC(C)C)NC(=O)[C@H](CC(=O)O)NC(=O)[C@H](CS)NC(=O)[C@@H](NC(=O)[C@@H](N)C(C)C)[C@@H](C)O)C(C)C)C(C)C)C(=O)N[C@@H](CS)C(=O)N[C@H](C(=O)N[C@@H](CS)C(=O)N[C@@H](CCCNC(=N)N)C(=O)N[C@@H](CC(N)=O)C(N)=O)C(C)C,,DH5α,,,> 75 µg/mL
CC[C@H](C)[C@H](NC(=O)[C@@H](Cc1ccccc1)NC)C(=O)OC[C@H](N)C(=O)N[C@H](CCC(N)=O)C(=O)N[C@@H](C(=O)N[C@H](C(=O)OC[C@H](N)C(=O)N[C@H]1C(=O)N[C@@H](C)C(=O)N[C@@H](C2CCCCC2)C(=O)N[C@@H]([C@@H](C)CC)C(=O)O[C@H]1C)[C@@H](C)CC)[C@@H](C)CC,broth microdilution,"ATCC 10798, Mueller-Hinton broth","16 h, 37 °C",,> 8 µg/mL
OB(O)c1ccc(OCc2ccccc2)nc1F,bacterial growth,TEM-3 ESBL clinical isolate,cefotaxime alone,,4 µg/mL
Cc1c2oc3c(C)ccc(C(=O)N[C@@H]4C(=O)N[C@H](C(C)C)C(=O)N5[C@H](C(=O)N(C)CC(=O)N(C)[C@@H](C(C)C)C(=O)O[C@@H]4C)[C@@H](O)C[C@@H]5C)c3nc-2c(C(=O)N[C@@H]2C(=O)N[C@H](C(C)C)C(=O)N3CC(=O)C[C@H]3C(=O)N(C)CC(=O)N(C)[C@@H](C)C(=O)O[C@@H]2CO)c(N)c1=O,broth microdilution,ATCC 12435,16 to 48 h,,> 9.33 µg/mL
C#CCON=C1C(C)C(c2ccc(Cl)cc2)OC(c2ccc(Cl)cc2)C1C (centres unmarked),"microbial growth, broth dilution",MTCC443,24 h,,12.5 µg/mL
Cc1cc(N)c2cc(NC(=O)c3ccc4cc(C5CC5)ccc4c3)ccc2n1,,ΔtolC efflux-deficient,,,100 µM
CCCO[C@H]1[C@H](O)[C@@H](N)[C@@H](O[C@H]2[C@H](O[C@@H]3O[C@H](CO)[C@@H](O[C@H]4O[C@@H](CN)[C@@H](O)[C@H](O)[C@H]4N)[C@H]3O)[C@@H](O)[C@H](N)C[C@@H]2N)O[C@@H]1CO,broth microdilution,clinical isolate AG 001,,,32 µg/mL
CC(C)C[C@H](NC(=O)CN)C(=O)N[C@@H](CC(C)C)C(=O)N[C@@H](CCCCN)C(=O)N[C@@H](CC(C)C)C(=O)N[C@@H](CC(C)C)C(=O)N[C@@H](CCCCN)C(=O)N[C@@H](CCCCN)C(=O)N[C@@H](CC(C)C)C(=O)N[C@@H](CC(C)C)C(=O)N[C@@H](CCCCN)C(=O)N[C@@H](CC(C)C)C(=O)N[C@@H](CC(C)C)C(=O)N[C@@H](CCCCN)C(N)=O,,"ATCC 25922, CAMHB","18 h, 37 °C",,> 19 µM
Cc1cc(N)c2cc(NC(=O)c3ccc4c(-c5ccccc5O)cccc4c3)ccc2n1,,hyperporinated ΔtolC,,,12.5 µM
CC[C@H](C)[C@@H]1NC(=O)CNC(=O)[C@H](CCCCN)NC(=O)[C@H](C)NC(=O)[C@H](CCC(=O)O)NC(=O)[C@H](Cc2ccccc2)NC(=O)[C@H](CO)NC(=O)[C@H](CC(C)C)NC(=O)[C@H](C(C)C)NC(=O)[C@H](CC(=O)O)NC(=O)[C@@H](NC(=O)[C@@H](NC(=O)[C@@H](N)C(C)C)[C@@H](C)O)CSSC[C@@H]2NC(=O)[C@H](CO)NC(=O)CNC(=O)CNC(=O)[C@H](CCCCN)NC(=O)[C@H](CCCCN)NC(=O)[C@H](CCCNC(=N)N)NC(=O)[C@H](CC(C)C)NC(=O)[C@H](C)NC(=O)[C@H]([C@@H](C)CC)NC(=O)[C@@H]3CSSC[C@@H](C(=O)N[C@@H](CCCNC(=N)N)C(=O)N[C@@H](CC(N)=O)C(=O)O)NC(=O)[C@H](C(C)C)NC(=O)[C@H](CSSC[C@H](NC(=O)[C@H](C)NC(=O)[C@H](CO)NC(=O)[C@H](Cc4c[nH]cn4)NC(=O)[C@H](CC(N)=O)NC(=O)[C@H](C(C)C)NC(=O)[C@H](C)NC1=O)C(=O)N[C@@H](C)C(=O)N[C@@H](CC(C)C)C(=O)N[C@@H](Cc1c[nH]cn1)C(=O)N3)NC(=O)[C@H](C(C)C)NC(=O)CNC(=O)[C@H](CC(N)=O)NC(=O)[C@H](CCC(N)=O)NC2=O,broth microdilution,KCTC 1682,"16 h, 37 °C",,3.1 µM
CCCCCCSCC1OC(OC2C(N)CC(N)C(OC3OC(CN)C(O)CC3N)C2O)C(O)C(N)C1O (centres unmarked),,BL21(DE3) pET22b,,,> 150 µg/mL
CC[C@H](C)[C@H](NC(=O)CNC(=O)[C@@H](NC(=O)[C@@H](N)Cc1ccccc1)[C@@H](C)CC)C(=O)N[C@@H](CCSC)C(=O)N[C@@H](C)C(=O)N[C@H](C(=O)N[C@@H](CC(C)C)C(=O)N[C@@H](C)C(=O)N[C@@H](CO)C(=O)N[C@@H](CC(C)C)C(=O)N[C@H](C(=O)N[C@H](C(=O)N1CCC[C@H]1C(=O)N[C@@H](CCCCN)C(=O)N[C@@H](CC(C)C)C(=O)N[C@H](C(=O)N[C@@H](CCC(=O)O)C(=O)N[C@@H](CCCCN)C(=O)N[C@H](C(=O)N[C@@H](CCCCN)C(=O)N[C@@H](CCC(N)=O)C(=O)N[C@@H](C)C(=O)N[C@@H](CCCNC(=N)N)C(N)=O)[C@@H](C)CC)[C@@H](C)CC)[C@@H](C)CC)C(C)C)[C@@H](C)O,,"ATCC 35218, MHC medium with bicarbonate",,,> 50 µM
CCCCCCCCCCCC[S+]([O-])CC1OC(OC2C(N)CC(N)C(OC3OC(CN)C(O)CC3N)C2O)C(O)C(N)C1O (mixture of isomers),,BL21(DE3),,,75 µg/mL
COc1cc(/C=C/C(=O)NCCCCCC(=O)N[C@@H](CCCNC(=N)N)C(=O)N[C@@H](CC(C)C)C(=O)N[C@@H](CC(C)C)C(=O)N[C@@H](CCCNC(=N)N)C(=O)N[C@@H](CCCNC(=N)N)C(=O)N[C@@H](CC(C)C)C(=O)N[C@@H](CC(C)C)C(=O)N[C@@H](CCCNC(=N)N)C(N)=O)ccc1O,broth microdilution,ATCC 25922,"24 h, 37 °C",,36 µM
